Experimental data gathered from unrelated publications.
Parts stem from different laboratories: compare values within a part only. Changes are numbered by the printed parent chain.

Set 1
Target: PABPC1L2, full length, GST fusion (mouse, UniProt A0ABA7IW68)
Technique: RNAcompete
Molecule type: RNA
Medium: in vitro
Tested at: 20 nM
Setting: 7-mer, probes averaged, single round
Reference: mean of 7-mers
Direction: higher = stronger binding
Target sequence (chain): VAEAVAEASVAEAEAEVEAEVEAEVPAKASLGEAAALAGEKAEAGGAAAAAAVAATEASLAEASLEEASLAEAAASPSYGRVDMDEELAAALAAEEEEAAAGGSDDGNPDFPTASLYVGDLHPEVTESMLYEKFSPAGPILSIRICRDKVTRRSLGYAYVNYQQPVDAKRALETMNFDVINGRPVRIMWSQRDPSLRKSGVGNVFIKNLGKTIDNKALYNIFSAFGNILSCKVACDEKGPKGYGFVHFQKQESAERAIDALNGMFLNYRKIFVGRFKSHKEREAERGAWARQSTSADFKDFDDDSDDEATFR
Sequence | 7-mer Z-score
CGACGCC | -0.269
UGACCUU | -0.313
AGCCCCG | -0.316
GCCCCCG | -0.421
UGCUUCA | -0.289
CUCCGAU | -0.277
CUCAUCG | -0.315
UUACGCC | -0.315
ACGAUUU | -0.0446
GAUGUGA | -0.11
UUAUUAC | -0.271
GCCAUCA | -0.0772
AGCUUGC | -0.186
CAGACCG | 0.0207
CGGUGCA | 0.0352
UAGAAGU | -0.0246
CUAGGCG | -0.0645
CUGUAAU | -0.237
GGAUUUA | 0.403
GGUCCUG | -0.217
GGUCUGC | -0.313
AUCGUGA | -0.244
UUGUCUC | -0.412
CGUUCAA | -0.193
ACGCGGU | -0.0391

Set 2
Target: RING finger protein unkempt homolog, zinc fingers 1-6, GST-SBP tag (UNK, Homo sapiens, UniProt Q9C0B0, residues 30-357)
Sequence of UniProt Q9C0B0 (30-357, looked up): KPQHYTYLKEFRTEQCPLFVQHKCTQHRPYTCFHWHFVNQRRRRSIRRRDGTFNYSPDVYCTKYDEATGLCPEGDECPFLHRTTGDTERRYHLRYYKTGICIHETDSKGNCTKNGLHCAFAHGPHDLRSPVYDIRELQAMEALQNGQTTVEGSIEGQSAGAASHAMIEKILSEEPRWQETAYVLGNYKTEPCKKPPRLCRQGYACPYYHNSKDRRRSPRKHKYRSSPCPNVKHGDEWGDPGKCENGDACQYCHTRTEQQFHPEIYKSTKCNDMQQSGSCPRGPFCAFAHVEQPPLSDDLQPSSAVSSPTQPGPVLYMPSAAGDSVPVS
Technique: RNA Bind-n-Seq
Molecule type: RNA
Medium: in vitro
Tested at: not given
Setting: RNA with constant flanks, human and mouse sites, ends assumed
Reference: input RNA pool
Direction: higher = stronger binding
Sequence | bound/input enrichment [ratio]
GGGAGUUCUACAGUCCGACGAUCUGUGUUCACAAUUACGUGAAGGGAGGACCCUUGGGGACCGCCAUUCUAAAUAUCAUGUAGGAAUUUAAAAAGCCAAAAUACUAAUUAUUUCUUUGUAGUGUGUAAAGGAAUGUUUUUAAACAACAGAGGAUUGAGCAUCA | 1.96
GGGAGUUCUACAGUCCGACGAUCAGGACCUCUUCCAGCCCUCUGGGAACCUCCCUGAGGUCCCAGGAGGAAAUCUGCACGGGGUGGGGGAGGGCCAGCCUCUUCCUGUUUUGUACAUAGAUUUAUUUUUCAGUUCCAAGAAAGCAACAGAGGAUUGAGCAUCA | 0.809
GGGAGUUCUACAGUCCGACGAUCCCCCCACCGUUCCCUUUGGCUUUUGCACCCCCUUCUUUCCAUACACACACAUACCAUUAUUUUUUGGGCCAUUACCCCAUUUCCCUUAUUGCUGCCAAAACCACAUGGGCUGGGGGCUGGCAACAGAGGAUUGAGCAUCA | 1.63
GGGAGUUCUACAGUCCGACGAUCGUGUCGAGUUCCUUGGAGCAAUGAUCUUUGCUGCCAAGAUAUCUCAUUUCUUCUUGUUUCUUCUUCGCCCACGACCACUUCACAAACACCGACCAACAGCAAACAACAACCCACCCCGCUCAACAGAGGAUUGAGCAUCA | 0.447
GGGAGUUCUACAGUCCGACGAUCACUGGAAAAACCCUGGUUGCUAGAGCACUUGCCAAUGAGUGCAGCCGAGGGGAUAAGAGAGUGGCGUUCUUCAUGAGGAAAGGUGCUGACUGCCUGAGUAAAUGGGUAGGAGAAUCUGAGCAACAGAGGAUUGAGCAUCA | 0.103
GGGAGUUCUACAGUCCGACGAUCGAUCAGAGCUGAUCAACUCCUUUAGGAUUGCCUGUGGAGGAUACCUUCAGUCGAAGUUUUUUUAGCCCUCACUGAGCUACUUCCAAGUUUGGAAGUACUUAGUGACCUUGGUGAGUUUCUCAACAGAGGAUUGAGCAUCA | 9.47
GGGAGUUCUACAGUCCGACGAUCGAGUUAGACCCCAAGUUGGCUCCCUGGAUCCAGAGACUGAAUAGUUUUGGCUUGGAUGCCAUAGGACCCUUUUUCACUCGGUACGGAGCAUCUCUCAAGGAGCUUGAUUUCCACGUCGUGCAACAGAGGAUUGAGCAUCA | 0.286
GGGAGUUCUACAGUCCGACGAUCAUGCCAAAGGAAAAAUAUGAUCCUCCAGAUCCUCGCAGAAUUUAUACCAUCAUGUCAGCAGAGGAGGUAGCCAAUGGGAAAAAAUCUCACUGGGCAGAAUUAGAAAUCUCGGGUAGAGUGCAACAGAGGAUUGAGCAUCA | 1.1
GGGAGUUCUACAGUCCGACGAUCGAUUACAAACCAUAAAAUGUAUAACGUUUUGAGCAGUAUUCUGUUGGGAUGGAGAUUUUAUAGGUUCAGACAAAUCUUCUAGAUCUGCUUCACCCAGCAUAUUUUCUAUUCAGUGAUAUACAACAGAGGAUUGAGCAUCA | 0.23
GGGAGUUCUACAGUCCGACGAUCCUUGACUUUCUACGAAUUAGUGACACAGAAAAGCUUCCAGAAUUUAAGAGCUUUGAAGAACUAGAAUUUCCUAAGCAUUCAAAAGUCAAACGGCAGAGCAGUACCGCAGAUGCUCCUGAGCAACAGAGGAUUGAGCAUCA | 0.549
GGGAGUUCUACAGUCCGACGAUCCAGCUCUUUGGGGAUGAUGAAACUGCUUUCGGUUACAAGGGCCUGAAGAUCUUGCUGUACUAUAUUGCUGGUAGCCUGUCAACACUGUUCCGUGUUGAAUAUUCAUCUAAAGUUGAUGAGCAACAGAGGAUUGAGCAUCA | 0.221

Set 3
Target: ABI1, truncated, D143A, DHFR fusion (Arabidopsis thaliana)
Technique: DHFR PCA, deep sequencing
Medium: yeast
Setting: methotrexate growth selection, single substitutions
Added: (+)-ABA 0.39 µM
Reference: wild-type fitted maximum
Direction: higher = stronger binding
Parent: PYL1, truncated, DHFR fusion (Arabidopsis thaliana); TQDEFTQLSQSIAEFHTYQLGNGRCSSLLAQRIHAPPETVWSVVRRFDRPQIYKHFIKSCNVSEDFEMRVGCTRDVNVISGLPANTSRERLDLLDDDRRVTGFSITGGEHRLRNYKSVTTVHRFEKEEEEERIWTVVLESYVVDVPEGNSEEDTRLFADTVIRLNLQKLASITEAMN; partner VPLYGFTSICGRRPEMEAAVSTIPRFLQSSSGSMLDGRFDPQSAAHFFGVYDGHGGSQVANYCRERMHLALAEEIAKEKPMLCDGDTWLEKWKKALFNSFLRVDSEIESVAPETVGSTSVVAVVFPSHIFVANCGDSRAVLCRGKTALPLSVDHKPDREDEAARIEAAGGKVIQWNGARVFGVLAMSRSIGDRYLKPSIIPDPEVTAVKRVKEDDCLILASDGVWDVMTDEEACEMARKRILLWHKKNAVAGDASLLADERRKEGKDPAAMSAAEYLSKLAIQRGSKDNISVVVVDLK
Change | relative binding score [%]
T6Q | 58.4
L91A | -4.41
K168C | 32.7
V121K | -4
S117G | 2.83
K126H | 56.4
Y18P | 18.9
T101D | -0.838
N149Y | 16.7
E151V | 51.1
L112R | 1.46
R69C | 31.5
G21W | 6.35
H110E | 30.3
L20Y | 31.2
I33S | -0.656
E174A | -0.297
T73C | 31.7
P37N | -13
E67I | 33.3

Set 4
Target: CCND1, cyclin fold, Cln2 fusion (human)
Technique: yeast growth competition, sequencing
Medium: yeast
Setting: weak parent motif
Reference: not given
Direction: higher = stronger binding
Parent: CDKN1B docking peptide (human); PSACRNLFGPVDH; partner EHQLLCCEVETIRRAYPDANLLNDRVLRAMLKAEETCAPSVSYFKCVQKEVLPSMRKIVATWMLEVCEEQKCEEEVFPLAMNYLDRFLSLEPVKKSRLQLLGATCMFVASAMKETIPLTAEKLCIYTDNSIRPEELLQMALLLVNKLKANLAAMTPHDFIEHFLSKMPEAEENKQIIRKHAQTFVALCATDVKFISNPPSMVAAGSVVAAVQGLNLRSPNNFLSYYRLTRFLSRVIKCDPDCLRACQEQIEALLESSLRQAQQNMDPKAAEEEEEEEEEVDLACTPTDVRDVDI
Change | normalised enrichment score
PMACRNLFGPVDH [S2M] | 0.157
PSAYRNLFGPVDH [C4Y] | 0.168
PSACRNLFVPVDH [G9V] | -0.0481
PSACRNEFGPVDH [L7E] | -0.0641
PSACRNLFAPVDH [G9A] | 0.766
PSACRNLDGPVDH [F8D] | 0.0308
PSACRNLVGPVDH [F8V] | -0.582
PSACRWLFGPVDH [N6W] | 0.239
PSACRNCFGPVDH [L7C] | -0.337
GSACRNLFGPVDH [P1G] | 0.838
PSACRNLFGPVDQ [H13Q] | 1.05
PSACRNLFGPTDH [V11T] | 0.867
PSACRNLFGPVDK [H13K] | 1.1
PSACRNLFGVVDH [P10V] | 0.31
PSACRNLFQPVDH [G9Q] | 0.602
PSAPRNLFGPVDH [C4P] | 0.0362
PSGCRNLFGPVDH [A3G] | 0.117
PSACQNLFGPVDH [R5Q] | 0.414
PSACRNWFGPVDH [L7W] | -0.205
PSAVRNLFGPVDH [C4V] | 0.291
PSDCRNLFGPVDH [A3D] | 0.368
PSACNNLFGPVDH [R5N] | 0.791
NSACRNLFGPVDH [P1N] | 0.934
PSACRTLFGPVDH [N6T] | 0.344
PNACRNLFGPVDH [S2N] | 0.687

Set 5
Target: Histone acetyltransferase KAT6A, winged helix 1, GST fusion (KAT6A, Homo sapiens, UniProt Q92794, residues 1-85)
Technique: protein binding microarray
Molecule type: double-stranded DNA, one strand shown
Medium: in vitro
Tested at: not given
Setting: 8-mer, flanks averaged, mean of 2 arrays, mostly near background
Reference: not given
Direction: higher = stronger binding
Construct (chain): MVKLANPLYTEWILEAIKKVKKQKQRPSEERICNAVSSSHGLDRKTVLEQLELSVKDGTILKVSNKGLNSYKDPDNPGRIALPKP
Sequence | E-score
TAGCGTCA | -0.0366
ATGTGGGA | -0.248
CTAGCGTA | 0.2
AGTCTAAA | -0.234
CCATACAC | -0.0624
TGAGTGAA | -0.216
AAGGGAAT | -0.0774
CAGTGAGC | 0.0161
TCCAACCA | -0.179
CAGCCGAG | -0.051
AGTGCCGC | 0.336
ACTCTAAG | 0.0111
CGCCACTA | 0.133
CGCACATA | 0.178
ATTTAGTA | 0.0281
ATAATTAT | -0.0561
ATAAGAGC | -0.023

Set 6
Target: CREB3, bZIP domain (human)
Technique: DHFR protein complementation
Medium: yeast
Setting: single substitutions, most at no-binding floor
Reference: wild-type JUN-FOS pair
Direction: higher = stronger binding
Parent: JUN, bZIP domain (human); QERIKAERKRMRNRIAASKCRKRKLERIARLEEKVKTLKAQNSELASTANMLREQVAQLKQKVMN; partner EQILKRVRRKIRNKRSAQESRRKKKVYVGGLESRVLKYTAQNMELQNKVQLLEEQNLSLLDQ
Change | binding fitness
A46C | -1.51 natural log
A46W | -1.54 natural log
E54D | -1.27 natural log
A49E | -1.5 natural log
Q41T | -1.4 natural log
M51Q | -1.47 natural log
E54G | -1.52 natural log
Q55Y | -1.47 natural log
N42R | -1.41 natural log
T37I | -1.35 natural log
I28K | -1.46 natural log
Q41P | -1.55 natural log
A40I | -1.52 natural log
N42Y | -1.46 natural log
E33D | -1.47 natural log
L52Y | -1.51 natural log
N42K | -1.31 natural log
R30E | -1.46 natural log

Some of these lines once more (set 6):
Change | binding fitness
A46C | -1.51 natural log
E54G | -1.52 natural log
I28K | -1.46 natural log
Q41P | -1.55 natural log
T37I | -1.35 natural log
E54D | -1.27 natural log
Q41T | -1.4 natural log
